Measurements collected from several papers.
Numbered parts are unrelated; each lists some results of a single study. Changes are numbered by the printed parent chain.

Sample 1
Target: CCND3, cyclin fold, Cln2 fusion (human)
Technique: yeast growth competition, sequencing
Matrix: yeast
Setting: weak parent motif
Baseline: not given
Direction: higher = stronger binding
Starting sequence: RP1L1 docking peptide (human); TLGLGPLSFTLED
`S8A`: “normalised enrichment score” -0.417.
Under “normalised enrichment score”, `L7A` is recorded as -0.205.
`L4A` — result for “normalised enrichment score”: 0.0693.
For `T10A`, “normalised enrichment score” read -0.0793.
`E12A` — result for “normalised enrichment score”: -0.162.
For `P6A`, “normalised enrichment score” read -0.516.

Sample 2
Target: PABPC1L2, full length, GST fusion (mouse, UniProt A0ABA7IW68)
Technique: RNAcompete
Molecule type: RNA
Matrix: in vitro
Tested at: 20 nM
Setting: 7-mer, probes averaged, single round
Baseline: mean of 7-mers
Direction: higher = stronger binding
Target sequence (chain): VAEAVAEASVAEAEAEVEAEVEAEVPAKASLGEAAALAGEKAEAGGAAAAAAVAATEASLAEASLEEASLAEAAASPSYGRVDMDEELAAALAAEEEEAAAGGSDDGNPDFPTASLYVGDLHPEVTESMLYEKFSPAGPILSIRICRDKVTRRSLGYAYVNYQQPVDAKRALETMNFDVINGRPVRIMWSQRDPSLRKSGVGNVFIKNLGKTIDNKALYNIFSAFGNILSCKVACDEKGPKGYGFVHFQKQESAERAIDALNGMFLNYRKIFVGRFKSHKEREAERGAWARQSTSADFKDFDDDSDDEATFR
With `UCGUUAU` the 7-mer Z-score was -0.402.
With `CGGCCGC` the 7-mer Z-score was -0.351.
For `UCGUGGA`, the 7-mer Z-score was -0.0772.
`CAACAGU` gave a 7-mer Z-score of -0.11.
`CUAGCUG` gave a 7-mer Z-score of -0.171.
`GAACGAG` gave a 7-mer Z-score of -0.0264.
With `UUCGGUC` the 7-mer Z-score was -0.296.
The 7-mer Z-score of `CCCGAAC` is reported as -0.144.
The 7-mer Z-score of `GACUUUC` is reported as -0.296.
With `CACCCUU` the 7-mer Z-score was -0.173.
For `ACCACUC`, the 7-mer Z-score was -0.235.
`UAGAUUU` gave a 7-mer Z-score of 0.0134.
`CGGGGGU` has a 7-mer Z-score of 0.236.
`CUAGGUC` has a 7-mer Z-score of -0.104.

Sample 3
Target: Interferon regulatory factor 3, full length, phosphomimetic (IRF3, Homo sapiens, UniProt Q14653, residues 1-427, S386D/S396D/S398D/S402D/T404D/S405D)
Technique: protein-binding microarray
Molecule type: double-stranded DNA, one strand shown
Matrix: in vitro
Tested at: 2540 nM top
Setting: 60-bp whole probe
Together with: salmon DNA 0.4 mg/ml
Baseline: random background probes
Direction: higher = stronger binding
All sequences stand within: GCCTAGCAC … GTCTTGATTCGCTTGACGCTGCTG
Residues (chain): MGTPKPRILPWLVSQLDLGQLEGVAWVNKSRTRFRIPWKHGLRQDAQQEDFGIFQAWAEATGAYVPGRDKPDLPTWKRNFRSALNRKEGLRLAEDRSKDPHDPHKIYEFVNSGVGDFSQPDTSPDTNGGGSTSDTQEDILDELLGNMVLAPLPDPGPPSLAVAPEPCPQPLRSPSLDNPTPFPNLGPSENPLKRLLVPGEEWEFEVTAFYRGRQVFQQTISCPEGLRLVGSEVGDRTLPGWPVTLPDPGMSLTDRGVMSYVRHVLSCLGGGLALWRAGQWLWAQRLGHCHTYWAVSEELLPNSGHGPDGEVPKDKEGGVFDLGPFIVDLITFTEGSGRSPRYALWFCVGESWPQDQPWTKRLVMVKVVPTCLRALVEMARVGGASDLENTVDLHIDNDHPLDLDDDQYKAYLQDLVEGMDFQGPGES
For `GACGGTATCGGGACTGGGCACGTGCTA`, “fitted relative affinity” read 1.65 z-score.
`TTCACTCTCTGCTTGTGTCTGTGCTAG`: “fitted relative affinity” 0.154 z-score.
`GACGGTATCCTTTACCTGACGTGCTAG`: “fitted relative affinity” 3.97 z-score.
Under “fitted relative affinity”, `TTAGGTTCCCGTTTCCTTTAGTGCTAG` is recorded as 5.59 z-score.
For `GACGGTTTCGACTATCGGGCCGTGCTA`, “fitted relative affinity” read 2.69 z-score.
Under “fitted relative affinity”, `GACGTACTGGACTATCGGGACGTGCTA` is recorded as -0.221 z-score.
For `GACGTTTTCAGTATCGAGACGTGCTAG`, “fitted relative affinity” read 2.59 z-score.
`TTAGGTATAGGGTTTCGGTTAGTGCTA`: “fitted relative affinity” 2.74 z-score.
For `GCTTTTATCCCTGACAGAAGGTGCTAG`, “fitted relative affinity” read 0.993 z-score.
Under “fitted relative affinity”, `TCATTTCTCCTTTGTAAACTGTGCTAG` is recorded as 3 z-score.
Under “fitted relative affinity”, `TTAGATTTCGGGTTACGATTAGTGCTA` is recorded as 2.32 z-score.
For `GACCAACTGAGTTTCGAGACGTGCTAG`, “fitted relative affinity” read 1.36 z-score.
For `TCAGGTTTCGGTATCGGTTAGTGCTAG`, “fitted relative affinity” read 8.39 z-score.
`TTAGATATCAGTTTCGATTCGTGCTAG` — result for “fitted relative affinity”: 6.52 z-score.
`TAGAAACTCGTGTTTTTCTCCGTGCTA` — result for “fitted relative affinity”: -0.382 z-score.
`TCATCTCTGCTTGTGTCACTGTGCTAG` — result for “fitted relative affinity”: 0.728 z-score.
`TCATGAGTCCCTATCTCACTGTGCTAG` — result for “fitted relative affinity”: 0.421 z-score.
`AACGATATCGGGACTGGAGACGTGCTA`: “fitted relative affinity” 0.107 z-score.
Under “fitted relative affinity”, `GACGATTTCTGGTTTCGAGACGTGCTA` is recorded as 2.36 z-score.
Under “fitted relative affinity”, `TCATATGTAATCATTCACACTGTGCTA` is recorded as 0.471 z-score.
For `TCACATACGAGTTTCCAACTGTGCTAG`, “fitted relative affinity” read 2.66 z-score.
For `ATGGCAAAAAAAAAAGATTTGTGCTAG`, “fitted relative affinity” read -0.687 z-score.
For `TTAGGTTTCCTTCTCATTTAGTGCTAG`, “fitted relative affinity” read 10.1 z-score.
`TTGGATATCAGTTTCGATTAGTGCTAG`: “fitted relative affinity” 4.37 z-score.
Under “fitted relative affinity”, `TTAGATATCAGTTTCGCTTAGTGCTAG` is recorded as 4.46 z-score.

Sample 4
Target: RNA binding protein fox-1 homolog 2, RRM domain, GST-SBP tag (RBFOX2, Homo sapiens, UniProt O43251-10, residues 100-194)
Technique: RNA Bind-n-Seq
Molecule type: RNA
Matrix: in vitro
Tested at: 365 nM
Setting: natural RNA segment, single round, ends assumed
Baseline: no-protein control
Direction: higher = stronger binding
Construct (chain): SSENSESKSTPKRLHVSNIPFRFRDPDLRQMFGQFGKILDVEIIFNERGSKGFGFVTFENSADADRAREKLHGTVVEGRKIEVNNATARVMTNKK
`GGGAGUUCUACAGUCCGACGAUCAAGAUUAAAAGUUGAAUAAAUAACACCAGCUUCCUGAAAAUGUCCAUAAUGCAUCAUUUGAAAAACAAAAACACCUGCCUACUUUACAUUAACAUGGUAAAGAUUGUAUGUGGAAUUCUCGGGUGCCAA`: “RBNS enrichment (R)” 1.4.
Under “RBNS enrichment (R)”, `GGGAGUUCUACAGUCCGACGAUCGAUUCAUUUUUCCUCCACUUUCCUGAGAGACCAAAAGUGUUCCUUGAGAUGUCACCAUUUGUCUUUCACAGUGACUUCCUUCCCUGAGCAAACAUUCAUGUGGCUUCGCUUGGAAUUCUCGGGUGCCAA` is recorded as 0.366.
For `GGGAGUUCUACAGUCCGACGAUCUCCACCAAAAGGGCUCCCUGAGGGUCUGGGCAAGGGACCUGCUUCUAUUAGCCCUUCUCCAUGGCCCUGCCAUGCUCUCCAAACCACUUUUUGCAGCUUUCUCUAGUUCAUGGAAUUCUCGGGUGCCAA`, “RBNS enrichment (R)” read 1.17.
Under “RBNS enrichment (R)”, `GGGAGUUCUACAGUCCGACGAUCUAUAUUUUUACAAAUAACUUUAUUUGCUUUACAUUAUUUCUAAAAGGAAAAAUCUGAGGAAACCCUUAUAUUUUCCAACAGGGUUCCUCUGUGUAGCUUUGCUUAUCCUGUGGAAUUCUCGGGUGCCAA` is recorded as 0.538.
`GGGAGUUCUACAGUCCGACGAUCUCUGAGAGAGGCUAAAAUGUUUUCAGCUAGGAACAAAUCUUCCUGGUCGAAAGUUAGUAGGAUAUGCCUGCUCUUUGGCCUGAUGACCAAUUUUAACUUAGAGCUUUUUUUGGAAUUCUCGGGUGCCAA` — result for “RBNS enrichment (R)”: 0.393.
Under “RBNS enrichment (R)”, `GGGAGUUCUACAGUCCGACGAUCGCCUCCUGACCCUCCCUGCACUUAGCCCUUCCAAGGGACAUCCAGUGGAGCACUGGCAUCUCGAGCUUGGGAAGGUCUUUAGAAUUAGGCUCUCUGGAGCAGGGCCUGUAUGGAAUUCUCGGGUGCCAA` is recorded as 1.21.
`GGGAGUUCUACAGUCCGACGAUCCCGGAUCACCAGCCCUCUGCUGGUGGUCAUAAAGCACACACAGUUUGUACUUGCUUCCUCUCGACGCCUGCCACAACAGUUUUGCCAGUCACCAAACUCAGAAAAAACUAUGGAAUUCUCGGGUGCCAA` — result for “RBNS enrichment (R)”: 0.261.
Under “RBNS enrichment (R)”, `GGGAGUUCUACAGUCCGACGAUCUGUUGUUCAGUAUGCAAAUCAAUUAUUUUAAGAAUCGCUUUUGUAAAUAUCUUUGUGAAUAUUUUAGUAUCGUCUUUGAUAAUAUUCAACAUUUUCAUGACCUGGUUAUAUGGAAUUCUCGGGUGCCAA` is recorded as 1.15.
`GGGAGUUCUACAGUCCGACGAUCAUUUCUAUGGUUGAAAUUCAUAGCCUUUCACUAUAGGAAAUGUUAAGAAAAAUUUAAACAGUUUAAGAUUAUAUAAUUUUUUUUUCUUUUCUAUAUUGAGGUGGCCACCAUGGAAUUCUCGGGUGCCAA` — result for “RBNS enrichment (R)”: 0.78.
For `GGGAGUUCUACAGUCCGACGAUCGCACUGGGCAACCUCAUCUUGCCUGCUCUCCCGCACCUGCUGGGACAUGAGCAUCUUGGGAUAUCUCUUUAACACUCAAGUAGCAAUUAAAGUUGAUUGUUCAGCUGGAGUGGAAUUCUCGGGUGCCAA`, “RBNS enrichment (R)” read 0.343.
`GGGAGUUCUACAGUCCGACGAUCCUCAUGACAUCUGUAAAUGCUGCUGUGUCUGGAAAGAAAGUCUUUAAAUCACUGGUGAAAGUGGCAUCAUCAGAUAAUCUCAAUGGCCACUUGUUCUGGCAUUUAUAAAUUGGAAUUCUCGGGUGCCAA` — result for “RBNS enrichment (R)”: 0.367.
For `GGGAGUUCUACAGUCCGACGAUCCACCUGCCCCUGCCUCUGAUCCAGAGUGCUGGGGUUACAGGUGACCCCAACCAUAACCAGUUCAUUUUUUUCCUUUUUUUUUUUUGAAAUGCACAUCUACCUCUUCCCUGUGGAAUUCUCGGGUGCCAA`, “RBNS enrichment (R)” read 0.785.

Sample 5
Target: ABI1, truncated, D143A, DHFR fusion (Arabidopsis thaliana)
Technique: DHFR PCA, deep sequencing
Matrix: yeast
Setting: methotrexate growth selection, single substitutions
Together with: (+)-ABA 17 µM
Baseline: wild-type fitted maximum
Direction: higher = stronger binding
Starting sequence: PYL1, truncated, DHFR fusion (Arabidopsis thaliana); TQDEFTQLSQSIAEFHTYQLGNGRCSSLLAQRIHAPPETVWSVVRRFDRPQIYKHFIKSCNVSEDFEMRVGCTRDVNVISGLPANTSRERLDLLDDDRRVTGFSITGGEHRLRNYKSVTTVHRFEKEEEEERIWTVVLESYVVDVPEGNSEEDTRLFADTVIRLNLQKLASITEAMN
`R113H` — result for “relative binding score”: 94.4%.
`E174V` — result for “relative binding score”: 53.9%.
For `R132P`, “relative binding score” read 89.6%.
`N61H` — result for “relative binding score”: 88.1%.
For `Y53E`, “relative binding score” read 5.09%.
`N177I`: “relative binding score” 86.8%.
Under “relative binding score”, `S140H` is recorded as -16.3%.
`R45A` — result for “relative binding score”: 24.5%.
`T154F`: “relative binding score” 5.75%.
Under “relative binding score”, `E151R` is recorded as 76.3%.
`S11C`: “relative binding score” 82.3%.
Under “relative binding score”, `R111Q` is recorded as 24.2%.
Under “relative binding score”, `K126L` is recorded as 87.5%.
Under “relative binding score”, `L169P` is recorded as -6.84%.
`E38G`: “relative binding score” 60.4%.
For `L94Q`, “relative binding score” read 4.3%.
`D96T` — result for “relative binding score”: 9.43%.

Excerpt of the above (sample 5):
`N61H` — result for “relative binding score”: 88.1%.
For `Y53E`, “relative binding score” read 5.09%.
`N177I`: “relative binding score” 86.8%.
Under “relative binding score”, `S140H` is recorded as -16.3%.
`R45A` — result for “relative binding score”: 24.5%.
`T154F`: “relative binding score” 5.75%.
Under “relative binding score”, `E151R` is recorded as 76.3%.
`S11C`: “relative binding score” 82.3%.
